Measured values collected from several papers.
Protocols differ between the studies behind these lines.
Chain of UniProt Q92621 (whole entry, looked up): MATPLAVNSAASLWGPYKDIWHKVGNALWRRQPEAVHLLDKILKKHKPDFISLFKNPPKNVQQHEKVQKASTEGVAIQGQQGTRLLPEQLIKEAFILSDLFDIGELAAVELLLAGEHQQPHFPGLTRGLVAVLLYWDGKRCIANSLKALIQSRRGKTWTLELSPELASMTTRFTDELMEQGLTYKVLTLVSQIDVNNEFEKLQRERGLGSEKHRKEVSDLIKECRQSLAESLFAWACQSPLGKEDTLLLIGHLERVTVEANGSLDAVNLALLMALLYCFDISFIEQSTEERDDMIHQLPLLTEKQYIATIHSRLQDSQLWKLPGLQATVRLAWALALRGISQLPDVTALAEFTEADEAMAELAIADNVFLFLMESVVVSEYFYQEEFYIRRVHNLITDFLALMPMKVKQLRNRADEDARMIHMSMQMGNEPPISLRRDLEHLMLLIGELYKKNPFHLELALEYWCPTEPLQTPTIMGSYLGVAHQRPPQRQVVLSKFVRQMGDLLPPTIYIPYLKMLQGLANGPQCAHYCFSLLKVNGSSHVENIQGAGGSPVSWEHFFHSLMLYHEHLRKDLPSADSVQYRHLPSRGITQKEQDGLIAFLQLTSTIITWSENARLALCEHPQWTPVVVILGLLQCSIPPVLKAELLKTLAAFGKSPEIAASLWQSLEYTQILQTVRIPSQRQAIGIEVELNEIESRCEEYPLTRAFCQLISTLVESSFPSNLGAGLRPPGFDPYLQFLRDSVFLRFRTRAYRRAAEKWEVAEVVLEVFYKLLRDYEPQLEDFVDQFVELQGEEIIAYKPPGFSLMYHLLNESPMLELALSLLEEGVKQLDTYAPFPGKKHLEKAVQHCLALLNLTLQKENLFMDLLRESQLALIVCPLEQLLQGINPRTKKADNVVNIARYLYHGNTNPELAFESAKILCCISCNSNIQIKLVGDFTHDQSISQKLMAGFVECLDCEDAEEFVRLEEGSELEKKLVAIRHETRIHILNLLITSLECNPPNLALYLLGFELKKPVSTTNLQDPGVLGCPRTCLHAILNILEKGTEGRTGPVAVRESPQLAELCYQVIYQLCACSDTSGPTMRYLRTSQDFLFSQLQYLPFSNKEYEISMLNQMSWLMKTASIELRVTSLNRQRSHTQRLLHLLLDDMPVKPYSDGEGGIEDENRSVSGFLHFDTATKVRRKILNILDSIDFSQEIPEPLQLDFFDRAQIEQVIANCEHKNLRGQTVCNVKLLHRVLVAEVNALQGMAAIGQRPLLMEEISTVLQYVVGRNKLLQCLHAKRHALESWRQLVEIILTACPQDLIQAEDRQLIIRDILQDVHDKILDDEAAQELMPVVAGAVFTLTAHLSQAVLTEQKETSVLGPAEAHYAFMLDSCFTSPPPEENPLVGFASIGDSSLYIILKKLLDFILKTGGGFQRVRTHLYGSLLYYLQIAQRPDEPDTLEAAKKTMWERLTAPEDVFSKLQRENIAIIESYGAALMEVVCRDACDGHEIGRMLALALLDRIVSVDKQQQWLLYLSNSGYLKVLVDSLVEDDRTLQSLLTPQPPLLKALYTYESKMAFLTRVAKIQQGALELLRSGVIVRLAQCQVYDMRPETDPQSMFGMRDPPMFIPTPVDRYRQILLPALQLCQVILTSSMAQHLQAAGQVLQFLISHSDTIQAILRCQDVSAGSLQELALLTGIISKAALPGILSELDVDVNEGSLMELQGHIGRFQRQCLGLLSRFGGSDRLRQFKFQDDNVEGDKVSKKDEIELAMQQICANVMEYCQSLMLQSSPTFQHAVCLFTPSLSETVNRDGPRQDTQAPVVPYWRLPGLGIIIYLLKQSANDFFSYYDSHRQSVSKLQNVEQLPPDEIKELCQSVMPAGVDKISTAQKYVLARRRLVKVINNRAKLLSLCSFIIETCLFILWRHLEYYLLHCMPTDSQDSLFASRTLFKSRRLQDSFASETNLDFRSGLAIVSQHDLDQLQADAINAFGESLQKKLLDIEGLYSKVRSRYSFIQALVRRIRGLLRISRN
Chain of UniProt P60660 (whole entry, looked up): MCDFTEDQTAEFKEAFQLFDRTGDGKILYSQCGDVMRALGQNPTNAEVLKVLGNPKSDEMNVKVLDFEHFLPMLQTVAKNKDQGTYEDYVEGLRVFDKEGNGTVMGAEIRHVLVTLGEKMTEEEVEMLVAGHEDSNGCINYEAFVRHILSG
Chain of UniProt Q9NSD9 (whole entry, looked up): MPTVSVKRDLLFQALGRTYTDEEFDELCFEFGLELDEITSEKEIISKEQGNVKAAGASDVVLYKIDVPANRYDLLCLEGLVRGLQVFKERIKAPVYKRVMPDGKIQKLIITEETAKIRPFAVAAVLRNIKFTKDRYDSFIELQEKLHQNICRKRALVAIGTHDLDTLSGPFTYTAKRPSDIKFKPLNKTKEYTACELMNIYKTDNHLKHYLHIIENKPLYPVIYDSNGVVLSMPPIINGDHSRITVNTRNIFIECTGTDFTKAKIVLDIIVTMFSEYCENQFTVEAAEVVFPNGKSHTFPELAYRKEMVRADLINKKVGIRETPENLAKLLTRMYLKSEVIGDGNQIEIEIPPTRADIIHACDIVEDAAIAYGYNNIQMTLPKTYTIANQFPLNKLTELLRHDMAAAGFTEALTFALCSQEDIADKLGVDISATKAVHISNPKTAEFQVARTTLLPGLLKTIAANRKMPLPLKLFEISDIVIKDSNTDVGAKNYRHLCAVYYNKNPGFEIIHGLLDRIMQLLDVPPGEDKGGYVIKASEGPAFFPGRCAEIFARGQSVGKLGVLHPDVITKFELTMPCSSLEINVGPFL
Chain of UniProt O43402 (whole entry, looked up): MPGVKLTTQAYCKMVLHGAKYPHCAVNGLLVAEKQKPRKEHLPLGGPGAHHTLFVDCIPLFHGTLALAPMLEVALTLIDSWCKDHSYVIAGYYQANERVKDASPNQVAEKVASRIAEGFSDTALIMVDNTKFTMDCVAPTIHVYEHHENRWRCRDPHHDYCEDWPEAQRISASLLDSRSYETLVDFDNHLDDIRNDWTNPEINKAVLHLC
Chain of UniProt P46940 (whole entry, looked up): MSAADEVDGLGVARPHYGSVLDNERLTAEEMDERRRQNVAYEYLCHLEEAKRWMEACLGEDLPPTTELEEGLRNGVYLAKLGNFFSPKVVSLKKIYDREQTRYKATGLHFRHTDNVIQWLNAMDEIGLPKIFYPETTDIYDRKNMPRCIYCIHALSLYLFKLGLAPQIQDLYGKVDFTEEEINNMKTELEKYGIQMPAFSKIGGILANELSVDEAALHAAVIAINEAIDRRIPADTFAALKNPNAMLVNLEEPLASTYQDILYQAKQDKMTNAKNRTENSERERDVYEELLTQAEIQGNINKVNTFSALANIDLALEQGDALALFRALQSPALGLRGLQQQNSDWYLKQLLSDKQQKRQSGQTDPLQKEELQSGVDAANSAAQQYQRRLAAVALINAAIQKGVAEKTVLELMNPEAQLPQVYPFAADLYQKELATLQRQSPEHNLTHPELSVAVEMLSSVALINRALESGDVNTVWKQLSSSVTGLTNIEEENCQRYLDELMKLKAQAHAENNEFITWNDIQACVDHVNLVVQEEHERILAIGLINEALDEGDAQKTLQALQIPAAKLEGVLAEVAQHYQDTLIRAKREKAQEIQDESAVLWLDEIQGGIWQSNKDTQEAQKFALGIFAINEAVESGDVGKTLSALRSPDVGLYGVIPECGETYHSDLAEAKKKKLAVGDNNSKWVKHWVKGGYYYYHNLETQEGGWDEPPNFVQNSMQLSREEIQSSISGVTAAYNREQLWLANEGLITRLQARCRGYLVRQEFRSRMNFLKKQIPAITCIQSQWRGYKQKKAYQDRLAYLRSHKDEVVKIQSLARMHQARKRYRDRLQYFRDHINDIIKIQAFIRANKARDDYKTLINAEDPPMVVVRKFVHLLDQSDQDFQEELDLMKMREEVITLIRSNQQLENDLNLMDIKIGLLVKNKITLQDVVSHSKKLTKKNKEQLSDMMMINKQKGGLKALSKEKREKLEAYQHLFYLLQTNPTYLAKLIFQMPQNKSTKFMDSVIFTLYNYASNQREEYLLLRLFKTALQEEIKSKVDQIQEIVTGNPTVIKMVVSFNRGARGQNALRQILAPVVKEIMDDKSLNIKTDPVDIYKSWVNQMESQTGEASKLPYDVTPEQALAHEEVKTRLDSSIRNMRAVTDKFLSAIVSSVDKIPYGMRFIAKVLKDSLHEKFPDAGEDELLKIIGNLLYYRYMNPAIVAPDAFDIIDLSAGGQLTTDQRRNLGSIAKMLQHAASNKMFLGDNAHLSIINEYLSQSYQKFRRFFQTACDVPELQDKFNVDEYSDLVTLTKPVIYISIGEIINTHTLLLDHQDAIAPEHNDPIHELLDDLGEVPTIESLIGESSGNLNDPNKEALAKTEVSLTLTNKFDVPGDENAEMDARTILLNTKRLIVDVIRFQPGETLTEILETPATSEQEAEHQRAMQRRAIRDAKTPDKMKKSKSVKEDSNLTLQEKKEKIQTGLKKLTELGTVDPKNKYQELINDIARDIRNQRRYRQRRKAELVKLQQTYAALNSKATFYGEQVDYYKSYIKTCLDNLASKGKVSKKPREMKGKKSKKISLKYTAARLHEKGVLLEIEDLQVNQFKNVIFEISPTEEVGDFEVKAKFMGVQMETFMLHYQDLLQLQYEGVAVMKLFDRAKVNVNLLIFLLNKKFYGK
Chain of UniProt Q9BPW8 (whole entry, looked up): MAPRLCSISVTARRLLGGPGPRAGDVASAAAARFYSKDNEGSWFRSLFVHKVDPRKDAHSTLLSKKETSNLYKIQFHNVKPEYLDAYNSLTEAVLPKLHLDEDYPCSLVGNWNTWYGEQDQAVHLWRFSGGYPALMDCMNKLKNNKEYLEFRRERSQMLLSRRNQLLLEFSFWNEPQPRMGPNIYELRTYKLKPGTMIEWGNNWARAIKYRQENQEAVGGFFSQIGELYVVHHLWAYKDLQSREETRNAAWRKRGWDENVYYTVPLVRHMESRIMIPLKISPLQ

| Substance | tested on | test | system | setting | scale | endpoint | value |
| --- | --- | --- | --- | --- | --- | --- | --- |
| EMC8 (Homo sapiens, UniProt O43402) | EMC2 (Homo sapiens, UniProt Q15006) | cross-linking MS | purified complex | with: DSSO |  | cross-linked residues | K100 to K136 |
| PPIA (Homo sapiens, UniProt P62937) | PNN (Homo sapiens, UniProt Q9H307) | cross-linking MS | cells | with: iqPIR |  | cross-linked residues | K125 to K676 |
| TASOR2 (Homo sapiens, UniProt Q5VWN6) | WDR76 (Homo sapiens, UniProt Q9H967) | cross-linking MS |  | with: DSSO |  | cross-linked residues | K362 to K10 |
| ALB (Homo sapiens, UniProt P02768) | SPRED2 (Homo sapiens, UniProt Q7Z698) | cross-linking MS |  | with: DSSO |  | cross-linked residues | K499 to K83 |
| NUP205 (Homo sapiens, UniProt Q92621) | MYO5C (Homo sapiens, UniProt Q9NQX4) | cross-linking MS | cells | with: iqPIR |  | cross-linked residues | K1271 to K1242 |
| PGM2 (Homo sapiens, UniProt Q96G03) | KRT84 (Homo sapiens, UniProt Q9NSB2) | cross-linking MS |  | with: DSSO or DMTMM |  | cross-linked residues | A2 to E362 |
| ENO1 (Homo sapiens, UniProt P06733) | MDH1 (Homo sapiens, UniProt P40925) | cross-linking MS | cells | with: BDP-NHP |  | cross-linked residues | K80 to K110 |
| POLR3G (Homo sapiens, UniProt O15318) | FGG (Homo sapiens, UniProt P02679) | cross-linking MS |  | with: DSSO |  | cross-linked residues | K125 to K231 |
| KRT18 (Homo sapiens, UniProt P05783) | AKAP9 (Homo sapiens, UniProt Q99996) | cross-linking MS | cells | with: iqPIR |  | cross-linked residues | K118 to K949 |
| FGB (Homo sapiens, UniProt P02675) | CDK12 (Homo sapiens, UniProt Q9NYV4) | cross-linking MS |  | with: DSSO |  | cross-linked residues | K83 to K414 |
| FARSB (Homo sapiens, UniProt Q9NSD9) | FARSA (Homo sapiens, UniProt Q9Y285) | cross-linking MS | cells | with: iqPIR |  | cross-linked residues | K467 to K481 |
| FGB (Homo sapiens, UniProt P02675) | RANBP17 (Homo sapiens, UniProt Q9H2T7) | cross-linking MS |  | with: DSSO or DMTMM |  | cross-linked residues | K264 to D926 |
| FGG (Homo sapiens, UniProt P02679) | UACA (Homo sapiens, UniProt Q9BZF9) | cross-linking MS |  | with: DSSO |  | cross-linked residues | K121 to K784 |
| PLCH2 (Homo sapiens, UniProt O75038) | HNRNPK (Homo sapiens, UniProt P61978) | cross-linking MS |  | with: DSSO or DMTMM |  | cross-linked residues | M1 to D334 |
| CAND1 (Homo sapiens, UniProt Q86VP6) | MNS1 (Homo sapiens, UniProt Q8NEH6) | cross-linking MS | cells | with: BDP-NHP |  | cross-linked residues | K574 to K129 |
| SLC4A1 (Homo sapiens, UniProt P02730) | CLIP2 (Homo sapiens, UniProt Q9UDT6) | cross-linking MS |  | with: DSSO or DMTMM |  | cross-linked residues | D369 to K680 |
| GSGAGIESNV | human SCRIB PDZ3-4 tandem (MBP fusion) | automated holdup | peptide, crude extract | concentration not given, uncorrected, unit not given | reference: biotin control resin, higher = stronger binding | binding intensity | 0.765 |
| GYPA (Homo sapiens, UniProt P02724) | EPB42 (Homo sapiens, UniProt P16452) | cross-linking MS |  | with: DSSO or DMTMM |  | cross-linked residues | D132 to K200 |

| Substance | tested on | test | system | setting | scale | endpoint | value |
| --- | --- | --- | --- | --- | --- | --- | --- |
| XRCC6 (Homo sapiens, UniProt P12956) | XRCC5 (Homo sapiens, UniProt P13010) | cross-linking MS | cells | with: BDP-NHP |  | cross-linked residues | K282 to K265 |
| IQGAP1 (Homo sapiens, UniProt P46940) | NIBAN2 (Homo sapiens, UniProt Q96TA1) | cross-linking MS | cells | with: iqPIR |  | cross-linked residues | K1230 to K554 |
| GMPS (Homo sapiens, UniProt P49915) | BAHCC1 (Homo sapiens, UniProt Q9P281) | cross-linking MS |  | with: DSSO |  | cross-linked residues | K671 to K247 |
| CCT6A (Homo sapiens, UniProt P40227) | CCT3 (Homo sapiens, UniProt P49368) | cross-linking MS |  | with: DSSO |  | cross-linked residues | K530 to K78 |
| FGA (Homo sapiens, UniProt P02671) | PPP1R26 (Homo sapiens, UniProt Q5T8A7) | cross-linking MS |  | with: DSSO |  | cross-linked residues | K89 to K265 |
| SPTB (Homo sapiens, UniProt P11277) | GDI1 (Homo sapiens, UniProt P31150) | cross-linking MS |  | with: DSSO or DMTMM |  | cross-linked residues | E515 to K112 |
| TOMM70 (Homo sapiens, UniProt O94826) | NCL (Homo sapiens, UniProt P19338) | cross-linking MS | cells | with: BDP-NHP |  | cross-linked residues | K126 to K398 |
| GSGAGPETLV | human MAGI1-2/6 PDZ construct (MBP fusion) | automated holdup | peptide, crude extract | concentration not given, corrected by standard peak, unit not given | reference: biotin control resin, higher = stronger binding | binding intensity | 0.211 |
| FUS (Homo sapiens, UniProt P35637) | ERLEC1 (Homo sapiens, UniProt Q96DZ1) | cross-linking MS |  | with: DSSO |  | cross-linked residues | K451 to K360 |
| MTA2 (Homo sapiens, UniProt O94776) | HSPA5 (Homo sapiens, UniProt P11021) | cross-linking MS | cells | with: iqPIR |  | cross-linked residues | K501 to K326 |
| PFKM (Homo sapiens, UniProt P08237) | PFKP (Homo sapiens, UniProt Q01813) | cross-linking MS | cells | with: BDP-NHP |  | cross-linked residues | K727 to K736 |
| APOA1 (Homo sapiens, UniProt P02647) | APOC1 (Homo sapiens, UniProt P02654) | cross-linking MS |  | with: DSSO |  | cross-linked residues | K232 to K56 |
| HBE1 (Homo sapiens, UniProt P02100) | SLC4A1 (Homo sapiens, UniProt P02730) | cross-linking MS |  | with: DSSO or DMTMM |  | cross-linked residues | M1 to E13 |
| MYH9 (Homo sapiens, UniProt P35579) | MYL6 (Homo sapiens, UniProt P60660) | cross-linking MS | cells | with: iqPIR |  | cross-linked residues | K833 to K81 |
| GAPDH (Homo sapiens, UniProt P04406) | MYBBP1A (Homo sapiens, UniProt Q9BQG0) | cross-linking MS | cells | with: BDP-NHP |  | cross-linked residues | K259 to K277 |
| HSPA8 (Homo sapiens, UniProt P11142) | NIPSNAP1 (Homo sapiens, UniProt Q9BPW8) | cross-linking MS | cells | with: iqPIR |  | cross-linked residues | K325 to K51 |
| CSDE1 (Homo sapiens, UniProt O75534) | STRAP (Homo sapiens, UniProt Q9Y3F4) | cross-linking MS | cells | with: BDP-NHP |  | cross-linked residues | K758 to K262 |

Repeated from above:
| Substance | tested on | test | system | setting | scale | endpoint | value |
| --- | --- | --- | --- | --- | --- | --- | --- |
| PPIA (Homo sapiens, UniProt P62937) | PNN (Homo sapiens, UniProt Q9H307) | cross-linking MS | cells | with: iqPIR |  | cross-linked residues | K125 to K676 |
| TASOR2 (Homo sapiens, UniProt Q5VWN6) | WDR76 (Homo sapiens, UniProt Q9H967) | cross-linking MS |  | with: DSSO |  | cross-linked residues | K362 to K10 |
| ALB (Homo sapiens, UniProt P02768) | SPRED2 (Homo sapiens, UniProt Q7Z698) | cross-linking MS |  | with: DSSO |  | cross-linked residues | K499 to K83 |
| NUP205 (Homo sapiens, UniProt Q92621) | MYO5C (Homo sapiens, UniProt Q9NQX4) | cross-linking MS | cells | with: iqPIR |  | cross-linked residues | K1271 to K1242 |
